Results from different studies.
Compare with care: the assays were run in different laboratories. ± marks the error that the study gave.

Structure (SMILES) | cell line | test | test system | conditions | scale | quantity | value
CC(C)[C@H]1C(=O)N[C@@H](CCCN=C(N)N)C(=O)NCC(=O)N[C@@H](CC(=O)O)C(=O)N[C@H](Cc2ccccc2)C(=O)N1C | Caco-2 |  |  | 200 µM | reference: Papp B-A over Papp A-B | efflux ratio | 1.1
O=C(O)C(F)(F)C(F)(F)C(F)(F)C(F)(F)C(F)(F)C(F)(F)C(F)(F)F | Caco-2 cells |  |  |  |  | passive diffusion clearance | 0.302 µL/s/mg protein
C[C@@H](NC(=O)[C@@H](C)NC(=O)[C@H](CCCCNC(=O)c1ccc(S(=O)(=O)F)cc1)NC(=O)c1ccc(S(=O)(=O)F)cc1)C(=O)O | Caco-2 |  |  | 10 µM | reference: B-A over A-B | efflux ratio | 2.19
CC(C)CC(=O)OC[C@H]1O[C@@](C#N)(c2ccc3c(N)ncnn23)[C@H](O)[C@@H]1O | Caco-2 |  |  | 9 µM, 2 h |  | efflux ratio | 2.72
COc1cc2ncnc(Oc3cccc(NC(=O)Nc4cc(C(C)(C)C(F)(F)F)on4)c3)c2cc1OC | human cells |  |  |  |  | CC50 | > 20 µM
Oc1cc(Cl)ccc1Oc1ccc(Cl)cc1Cl | HepG2 | cell membrane permeability |  | concentration not given, 24 h, necrosis |  | response probability | 99.7%
O=C(Nc1cnccc1Cl)N1CCN(Cc2ccc3c(c2)OC(F)(F)O3)CC1 | COS cells expressing human FAAH |  |  | 100 nM, 24 h |  | supernatant concentration | 93.5 ± 3.5 nM
COCCOCCOCCNC(=O)c1sc2nc(-c3ccccc3)cc(C(F)(F)F)c2c1N | MDA-MB-231 | MTT |  | 100 µM, 72 h |  | viability | 9 ± 2%
C=C[C@@](C)(/C=C/c1ccc(O)cc1)CCC=C(C)C | Vero E6 |  |  | 100 µM |  | cytotoxicity | 0%
CCCC(=O)NC(c1cccs1)c1ccc2cccnc2c1O (centres unmarked) | human cells |  |  |  |  | CC50 | > 20 µM
CCOC(=O)c1ccc(NC(=O)CSc2nc(-c3ccccc3)cc(C(F)(F)F)c2C#N)cc1 | MDA-MB-231 | MTT |  | 100 µM, 72 h |  | viability | 15 ± 3%
C=CCNC1=C2C[C@@H](C)C[C@H](OC)[C@H](O)[C@@H](C)/C=C(\C)[C@H](OC(N)=O)[C@@H](OC)/C=C\C=C(/C)C(=O)NC(=CC1=O)C2=O | ARPE-19 HiBiT-fibulin-3 knock-in | cell viability, CellTiter-Glo |  | 1.66 µM, 48 h | reference: vehicle | ATP level reduction | -9.89%
Oc1ccc(C(c2ccc(O)cc2)(C(F)(F)F)C(F)(F)F)cc1 | HepG2 spheroids, dissociated | annexin V-FITC/PI flow cytometry |  | 1 µM, 24 h |  | viable cells | 68.9 ± 9.47%
O=C(/C=C/c1ccc(O)c(O)c1/C=C/c1ccc(O)c(O)c1)O[C@H](Cc1ccc(O)c(O)c1)C(=O)O | Vero E6 |  |  | 12.5 µM |  | cytotoxicity | 0%
CC(C)C[C@H]1C(=O)N[C@H]([C@H](C)O)C(=O)N[C@@H](C)C(=O)N[C@@H](Cc2ccccc2)C(=O)N[C@H](C(=O)O)CSSC[C@H](N)C(=O)N2CCC[C@@H]2C(=O)N[C@@H](CCC(=O)O)C(=O)N[C@@H](C(C)C)C(=O)N2CCC[C@H]2C(=O)N1C | MDCK-MDR1 |  | HBSS, 0.25% BSA | 2 h |  | Papp A to B | 0.18 ×10⁻⁶ cm/s
CC(C)=CCc1c(O)ccc(C(=O)/C=C/c2ccc(O)cc2)c1O | Vero E6 |  |  | 50 µM |  | cytotoxicity | 0%
O=C(Nc1cccnn1)N1CCC(=Cc2cccc(Oc3ccc(C(F)(F)F)cn3)c2)CC1 | COS cells expressing human FAAH |  |  | 100 nM, 0 h |  | supernatant concentration | 78 ± 3 nM
O=c1ccc2ccccc2o1 | NHEK | cell membrane permeability |  | concentration not given, 24 h, apoptosis, necrosis panel |  | chance response | 0.05%
CC(c1ccccc1)(c1ccc(O)cc1)c1ccc(O)cc1 | HepG2 spheroids, dissociated | annexin V-FITC/PI flow cytometry |  | 0.1 µM, 24 h |  | late apoptotic cells | 8.74 ± 1.17%
O=c1c(O[C@@H]2O[C@H](CO)[C@H](O)[C@H](O)[C@H]2O)c(-c2ccc(O)c(O)c2)oc2cc(O)cc(O)c12 | Caco-2 | CCK-8 |  | 2.5 µM, 24 h |  | viability | 108%
O=C(O[C@@H]1Cc2c(O)cc(O)cc2O[C@@H]1c1cc(O)c(O)c(O)c1)c1cc(O)c(O)c(O)c1 | Vero E6 |  |  | 25 µM |  | cytotoxicity | 0%
CN(C(=O)n1cnc(-c2ccc[n+]([O-])c2)c1)C1CCCCC1 | COS cells expressing human FAAH |  | cell lysate | 100 nM, 3 h, quantification limit 5 nM |  | compound concentration | not detected
CN1CCN(S(=O)(=O)c2ccc(-c3cnc(N)c(C(=O)Nc4cccnc4)n3)cc2)CC1 | ARPE-19 HiBiT-fibulin-3 knock-in | cell viability, CellTiter-Glo |  | 1.66 µM, 48 h | reference: vehicle | ATP level reduction | 9.55%
Cc1c[nH]c2nccc(Oc3c(F)cc(Nc4cc(Cl)nc(N)n4)cc3F)c12 | human cells |  |  |  |  | CC50 | > 20 µM

Structure (SMILES) | cell line | test | test system | conditions | scale | quantity | value
CC(C)C[C@H]1C(=O)N(C)[C@@H](CC(C)C)C(=O)N[C@H](Cc2ccc(O)cc2)C(=O)N2CCC[C@@H]2C(=O)N[C@H]([C@H](C)O)C(=O)NCC(=O)NCC(=O)N[C@@H](CO)C(=O)N[C@@H](C(C)C)C(=O)N[C@@H](C)C(=O)N[C@@H](C)C(=O)N[C@@H](Cc2ccccc2)C(=O)N1C | MDCK-MDR1 |  | HBSS, 0.25% BSA | 2 h |  | Papp A to B | 0.12 ×10⁻⁶ cm/s
COC(=O)c1ccc(NC(=O)c2sc3nc(C)cc(C)c3c2N)cc1 | MDA-MB-231 | MTT |  | 100 µM, 72 h |  | viability | 85 ± 7%
CC(C)C[C@H]1C(=O)N[C@@H](C)C(=O)N[C@@H](CO)C(=O)N[C@@H](C(C)C)C(=O)N(C)[C@@H](CC(C)C)C(=O)N[C@H](C)C(=O)N[C@H](C(C)C)C(=O)N2CCC[C@@H]2C(=O)N[C@H](Cc2ccc(O)cc2)C(=O)NCC(=O)N1C | MDCK-MDR1 |  | HBSS, 0.25% BSA | 2 h |  | Papp A to B | 0.15 ×10⁻⁶ cm/s
CCCCCCCCCCCCOS(=O)(=O)[O-].[Na+] | HCE | MTT |  | up to 50 µM |  | cytotoxicity | not toxic
COc1cc(CNC(=O)c2sc3nc(C)cc(C(F)(F)F)c3c2N)cc(OC)c1OC | MDA-MB-231 | MTT |  | 100 µM, 72 h |  | viability | 25 ± 3%
O=C(Nc1cnccc1Cl)N1CCN(Cc2ccc3c(c2)OC(F)(F)O3)CC1 | COS cells expressing human FAAH |  | cell lysate | 100 nM, 1 h, quantification limit 5 nM |  | compound concentration | not detected
CC(C)C[C@@H](NC(=O)[C@H](C)NC(=O)CNC(=O)[C@@H](NC=O)C(C)C)C(=O)N[C@@H](C)C(=O)N[C@@H](C(=O)N[C@H](C(=O)N[C@@H](C(=O)N[C@@H](Cc1c[nH]c2ccccc12)C(=O)N[C@H](CC(C)C)C(=O)N[C@@H](Cc1ccc2cc[nH]c2c1)C(=O)N[C@H](CC(C)C)C(=O)N[C@@H](Cc1c[nH]c2ccccc12)C(=O)N[C@H](CC(C)C)C(=O)N[C@@H](Cc1c[nH]c2ccccc12)C(=O)NCCO)C(C)C)C(C)C)C(C)C | P388 (mouse) | cytotoxicity, WST-1 |  | 92 h |  | IC50 | 0.00367 ± 0.00189 µM
O=S(=O)(c1ccc(O)cc1)c1ccc(O)cc1 | HepG2 spheroids, dissociated | annexin V-FITC/PI flow cytometry |  | 0.01 µM, 96 h |  | late apoptotic cells | 28.9 ± 11.1%
CCSc1nc2ccccc2n1Cc1nnc(-c2cccc(OC)c2O)o1 | neutrophils |  | fresh heparinized human blood | 200 µg/mL, 30 min |  | viability | 77.2 ± 4.2%
Cc1cc(-c2ccccc2)nc(SCC(=O)NCc2ccccc2)c1C#N | MDA-MB-231 | MTT |  | 100 µM, 72 h |  | viability | 49 ± 1%
CC(C)(c1ccc(O)cc1)c1ccc(O)cc1 | HepG2 spheroids | annexin V-FITC/PI flow cytometry |  | 10 µM, 24 h |  | late apoptotic cells | 13.6 ± 4.39%
CC(C)C[C@@H](NC(=O)[C@H](C)NC(=O)CNC(=O)[C@@H](NC=O)C(C)C)C(=O)N[C@@H](C)C(=O)N[C@@H](C(=O)N[C@H](C(=O)N[C@@H](C(=O)N[C@@H](Cc1c[nH]c2ccccc12)C(=O)N[C@H](CC(C)C)C(=O)N[C@@H](Cc1cc2ccccc2[nH]1)C(=O)N[C@H](CC(C)C)C(=O)N[C@@H](Cc1c[nH]c2ccccc12)C(=O)N[C@H](CC(C)C)C(=O)N[C@@H](Cc1c[nH]c2ccccc12)C(=O)NCCO)C(C)C)C(C)C)C(C)C | P388 (mouse) | cytotoxicity, WST-1 |  | 92 h |  | IC50 | 0.00062 ± 0.00013 µM
COc1ccc(C(C)(C)c2cnc(SCCOc3ccc(-n4ccnc4)cc3)n2-c2ccc(F)cc2)cc1OC | sandwich-cultured human hepatocytes | gene induction, inducer, item: CYP2B6 mRNA |  | 48 h | reference: vehicle | induction Emax | 4.82 fold
COc1cc(CNC(=O)CSc2nc(C)cc(C)c2C#N)cc(OC)c1OC | MDA-MB-231 | MTT |  | 100 µM, 72 h |  | viability | 48 ± 6%
O=NN1CC2CC(C1)c1cc3nccnc3cc12 | TK6 expressing CYP3A4 |  |  | 100 µM, 4 h, without S9 | reference: vehicle | relative survival | 86.5%
Cc1noc2c(NC3CCOCC3)cc(-c3cccc(C(F)(F)F)c3)nc12 | Vero E6 | cytotoxicity, CellTiter-Glo |  | retest 8-point, no virus |  | AC50 | 25.1 µM
O=C(Nc1cccnn1)N1CCC(=Cc2cccc(Oc3ccc(C(F)(F)F)cn3)c2)CC1 | COS cells expressing human FAAH |  | cell lysate | 100 nM, 3 h |  | intracellular concentration | 18.6 ± 0.6 nM
COc1ccc(C[C@@H]2c3cc(Oc4cc(C[C@@H]5c6cc(O)c(OC)cc6CCN5C)ccc4O)c(OC)cc3CCN2C)cc1 | Vero E6 |  |  | 25 µM |  | cytotoxicity | 0%
Oc1ccc(C2(c3ccc(O)cc3)c3ccccc3-c3ccccc32)cc1 | HepG2 spheroids, dissociated | annexin V-FITC/PI flow cytometry |  | 10 µM, 24 h |  | viable cells | 72.5 ± 3.7%
Cc1cccc(NC(=O)CSc2nc(-c3ccccc3)cc(C(F)(F)F)c2C#N)n1 | MDA-MB-231 | MTT |  | 100 µM, 72 h |  | viability | 29 ± 3%
CC[C@@H](C)[C@H]1NC(=O)[C@@H](Cc2ccc(O)cc2)NC(=O)[C@H](CCCNC(=N)N)NC(=O)[C@H](CCSC)NC(=O)[C@H](CC(C)C)NC(=O)[C@H](CC(C)C)NC(=O)[C@H]2CCCN2C(=O)[C@H](CC(C)C)NC(=O)CNC(=O)CNC(=O)CNC1=O | MDCK-MDR1 |  | HBSS, 0.25% BSA | 2 h |  | Papp A to B | 0.07 ×10⁻⁶ cm/s
Cc1cccc(NC(=O)CSc2nc(-c3ccccc3)cc(C)c2C#N)n1 | MDA-MB-231 | MTT |  | 100 µM, 72 h |  | viability | 34 ± 3%
C[S+](C)[O-] | Vero-B4 |  |  | concentration not given, 4 days | reference: mock | lowest significantly cytotoxic concentration | ≥ 3%

Repeated from above:
Structure (SMILES) | cell line | test | test system | conditions | scale | quantity | value
Cc1cc(-c2ccccc2)nc(SCC(=O)NCc2ccccc2)c1C#N | MDA-MB-231 | MTT |  | 100 µM, 72 h |  | viability | 49 ± 1%
CC(C)(c1ccc(O)cc1)c1ccc(O)cc1 | HepG2 spheroids | annexin V-FITC/PI flow cytometry |  | 10 µM, 24 h |  | late apoptotic cells | 13.6 ± 4.39%
CC(C)C[C@@H](NC(=O)[C@H](C)NC(=O)CNC(=O)[C@@H](NC=O)C(C)C)C(=O)N[C@@H](C)C(=O)N[C@@H](C(=O)N[C@H](C(=O)N[C@@H](C(=O)N[C@@H](Cc1c[nH]c2ccccc12)C(=O)N[C@H](CC(C)C)C(=O)N[C@@H](Cc1cc2ccccc2[nH]1)C(=O)N[C@H](CC(C)C)C(=O)N[C@@H](Cc1c[nH]c2ccccc12)C(=O)N[C@H](CC(C)C)C(=O)N[C@@H](Cc1c[nH]c2ccccc12)C(=O)NCCO)C(C)C)C(C)C)C(C)C | P388 (mouse) | cytotoxicity, WST-1 |  | 92 h |  | IC50 | 0.00062 ± 0.00013 µM
